Assay results pooled from the literature.
Each line is one published result; not all experiments were run side by side. Values joined by “and” are separate records of one study, mostly repeats; a detail may differ. ± gives the spread as reported.
ALB: Albumin (ALB, Homo sapiens, UniProt P02768)

Nc1ncnc2c1ncn2[C@@H]1O[C@H](COP(=O)(O)OP(=O)(O)O)[C@@H](O)[C@H]1O  ΔH (GUK1 (Homo sapiens, UniProt Q16774); ITC; molar ratio 3.053): -0.176 kcal/mol
CCNC(=O)/C=C/c1cccc(Br)c1  normalised signal (Sodium-dependent neutral amino acid transporter B(0)AT1 (SLC6A19, Homo sapiens, UniProt Q695T7); inhibitor, FLIPR membrane potential; CHO-BC cells; 100 µM; reference: uninhibited control): 0.474 and 0.497 and 0.506 and 0.468 and 0.41
N#Cc1ccc2c(-c3ccncc3)c(-c3ccc(F)cc3)nn2c1  log2 fold change (Carbon catabolite-derepressing protein kinase (SNF1, Candida albicans, UniProt P52497); kinase binding, competitor, MIB/MS competition, measured: SNF1; Candida albicans cell lysate; 10 µM; reference: DMSO): -0.0995
CCCCCCCCC(=O)c1cc(O)c(O)c(O)c1  activation (Retinoic acid receptor RXR-alpha (RXRA, Homo sapiens, UniProt P19793); reporter gene, Gal4 hybrid reporter; 10 µM; reference: vehicle): 2.31 fold
CC(=O)N[C@@H](CCCNC(=N)N)C(=O)N[C@@H](CCCNC(=N)N)C(=O)N[C@H]1CSSC[C@@H](C(=O)N[C@@H](CCCNC(=N)N)C(=O)N[C@@H](CCCNC(=N)N)C(N)=O)NC(=O)[C@H](C(C)C)NC(=O)[C@@H]2CCCN2C(=O)[C@H](CC(=O)O)NC(=O)[C@H](Cc2ccc(O)cc2)NC(=O)[C@H](CO)NC(=O)[C@H](CC2CCCC2)NC(=O)[C@H](Cc2ccc(O)cc2)NC(=O)[C@H](CC(C)C)NC(=O)[C@@H]2CCCN2C1=O  lowest bound protein concentration (GTPase KRas, GDP-bound (KRAS, Homo sapiens, UniProt P01116, G12D); affinity selection mass spectrometry; mixture library 1, with: protein titration up to 5 µM; lower is stronger binding): 5 µM
C1CCCC1.C1CCCC1.[Cl][W][Cl]  entropy change (ALB; binding, van't Hoff fluorescence quenching; concentration not given): 89.7 J/(mol K)
N[C@@H](Cc1ccc(O)cc1)C(=O)Nc1ccc2ccccc2c1  Km (Puromycin-sensitive aminopeptidase (Rattus norvegicus, UniProt F1M9V7); substrate): 9 µM
N[C@H](CNC(=O)c1ccc(-c2ccccc2)s1)C(=O)O  Hill slope (Glutamate receptor ionotropic, NMDA 1, with GluN2C (Grin1, Rattus norvegicus, UniProt P35439); with: glutamate 300 µM): 1.68
COc1cc(-c2[o+]c3cc(O)cc(O)c3cc2O[C@@H]2O[C@H](CO)[C@@H](O)[C@H](O)[C@H]2O)ccc1O  Gibbs free energy (ALB; binding, fluorescence quenching; 20 °C): -5.84 kcal/mol
Nc1ncnc2c1ncn2[C@@H]1O[C@H](COP(=O)(O)CP(=O)(O)OP(=O)(O)O)[C@@H](O)[C@H]1O  calcium influx (P2X purinoceptor 1 (P2RX1, Homo sapiens, UniProt P51575, K136A); calcium influx; 31.6 nM; reference: ionomycin response): 7.58% and 14.9% and 12.2%
CCCCCCCC=O  relative fluorescence (uncharacterized protein (Spodoptera exigua, UniProt F1CEY0); binding, competitor, fluorescence displacement; 20 µM, pH 7.4, with: 1-NPN 20 µM; reference: 1-NPN alone): 67.6%
c1ccc(Nc2nccc(-c3cccnc3)n2)cc1  displacement (Adenosine receptor A2a (ADORA2A, Homo sapiens, UniProt P29274); binding, radioligand competition; 30 µM, with: [3H]ZM241385): 25 ± 3%
CC[C@@H]1[C@H](F)C(=O)N[C@@H]1COc1nccc2cc(C(N)=O)c(OC)cc12  inhibition (SNF-related serine/threonine-protein kinase (SNRK, Homo sapiens, UniProt Q9NRH2); ATP-site probe binding, ActivX profiling; THP-1 cell lysate; 0.04 mM, Lys1 site): 9.5%
CCn1c(-c2nc3cc(C(=O)N4CCC[C@@H](N)C4)cc(OC)c3n2C)cc2cccnc21  citrullination (Protein-arginine deiminase type-2 (PADI2, Homo sapiens, UniProt Q9Y2J8); enzyme activity, cell lysate; HEK293 expressing PADI2; 100 µM, with: calcium 2 mM): no effect
COc1cc(-c2cncc3c2CN(C)Cc2cc(N4CCNCC4)ccc2-3)cc(OC)c1OC  remaining activity (Serine/threonine-protein kinase SBK1 (SBK1, Homo sapiens, UniProt Q52WX2); kinase activity; 1 µM, human enzyme, with: ATP 10 µM; reference: DMSO control): 109%
